Measurements pooled from the literature.
Each numbered part is a random draw from the data of one study; scales do not carry over between parts. “And” joins repeats or separate records; there may be more than shown.

Set 1
Compound: CCOc1ccc(Nc2c3c(nc4ccccc24)CCC3)cc1
| cell line | test | setting | cytotoxicity |
| --- | --- | --- | --- |
| HepG2 | resazurin | 0.0066 µM, 48 h | 3% and 2% |
| PMA-differentiated THP-1 macrophages |  | 0.8 µM, 64 h | 2% |
| HepG2 | resazurin | 16.66 µM, 48 h | 71% |
| HepG2 | resazurin | 0.066 µM, 48 h | 0% |
| J774.1 | resazurin | 0.00332 µM, 64 h | -4% and -5% |
| HEK293 | resazurin | 0.0066 µM, 10% serum | 3% and -1% |
| HEK293 | resazurin | 0.166 µM, 10% serum | 2% and 1% |
| PMA-differentiated THP-1 macrophages |  | 20 µM, 64 h | 63% and 48% |

Set 2
Target: Muscarinic acetylcholine receptor M4 (CHRM4, Homo sapiens, UniProt P08173)
UniProt P08173, sequence (whole entry, looked up): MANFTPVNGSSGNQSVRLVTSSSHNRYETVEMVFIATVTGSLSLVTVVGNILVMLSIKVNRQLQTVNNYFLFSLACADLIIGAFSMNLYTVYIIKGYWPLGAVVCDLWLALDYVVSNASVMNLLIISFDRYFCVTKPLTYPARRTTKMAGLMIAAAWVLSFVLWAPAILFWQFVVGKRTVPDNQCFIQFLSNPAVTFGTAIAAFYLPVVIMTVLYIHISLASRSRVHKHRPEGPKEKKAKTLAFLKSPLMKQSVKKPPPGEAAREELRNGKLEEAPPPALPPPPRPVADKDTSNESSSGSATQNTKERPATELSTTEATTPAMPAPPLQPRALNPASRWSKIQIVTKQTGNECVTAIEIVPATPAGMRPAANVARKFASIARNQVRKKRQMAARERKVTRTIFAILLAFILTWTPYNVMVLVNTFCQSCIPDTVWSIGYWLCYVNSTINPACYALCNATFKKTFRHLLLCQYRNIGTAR
Effect on: ligand displacement
Tested at: 10 µM
| SMILES | inhibition [%] |
| --- | --- |
| O=C1NC(c2ccccn2)Sc2ccccc21 (stereo not shown) | -4.7 |
| COc1cccc(NC(=O)c2nc3scc(CN(C)Cc4ccccc4)c3c(=O)[nH]2)c1 | -10.1 |
| CN(C)c1ncnc(-c2ccc3nc(Nc4cc(CN5CCN(C(=O)CC(F)(F)F)CC5)ccn4)[nH]c3c2)c1Cl | 4.83 |
| CS(=O)(=O)N1CCCC(NC(=O)[C@H](CCC2CCCCC2)NC(=O)c2ccc(CNC(=O)c3cnc4ccccn34)cc2)C1 (stereo partly shown) | -2.24 |
| c1ccc(N2CCN(Cc3nc4ccccc4[nH]3)CC2)nc1 | 4.23 |
| C[C@@H]1CN(c2cc(-c3n[nH]c4ccc(OC5(C)CC5)cc34)ncn2)C[C@H](C)O1 | -4.79 |
| CO[C@H]1CC[C@H](CNc2ccc(S(=O)(=O)NC(=O)c3ccc(N4CCN(CC5=C(c6ccc(Cl)cc6)CC(C)(C)CC5)CC4)cc3Oc3cnc4[nH]ccc4c3)cc2[N+](=O)[O-])CC1 | -0.31 |
| COc1ccc2cc(OCC3(C(=O)O)CN(C(=O)c4ccc(F)cc4)C3)ccc2c1 | -18.6 |
| CC1=C(C#N)C(c2ccc3[nH]nc(C)c3c2)C(C#N)=C(C)N1 | 5.33 |
| CN1CCN(c2ccnc(NCCc3ccccc3)n2)CC1 | 25.9 |
| CNC(=O)Nc1ccc2c(c1)CC[C@]21OC(=O)N(CC(=O)N(Cc2ccc(F)cc2)[C@@H](C)C(F)(F)F)C1=O | 11.2 |
| O=C(NS(=O)(=O)c1ccc(NCC2CCOCC2)c([N+](=O)[O-])c1)c1ccc(N2CCN(Cc3ccc(C(F)(F)F)cc3-c3ccc(Cl)cc3)CC2)cc1Oc1cnc2[nH]ccc2c1 | -5.79 |
| C[C@H](c1ccnc(Nc2nc3ccc(-c4cc(N(C)C)ncn4)cc3[nH]2)c1)N1CCN(C(=O)CC(F)(F)F)CC1 | 24.7 |
| Cc1ccccc1Oc1cc(-n2c(=O)cc(C(F)(F)F)[nH]c2=O)c2ccccc2c1Cl | -8.67 |

Set 3
Target: Serine/threonine-protein kinase pim-3 (PIM3, Homo sapiens, UniProt Q86V86)
Effect on: enzyme activity
Action: inhibitor
Tested at: 0.5 µM
Baseline: control
| SMILES | remaining activity [%] |
| --- | --- |
| O=c1c(-c2ccc(F)cc2)c(-c2ccncc2)[nH]n1-c1ccc(Cl)cc1 | 89.9 |
| O=Nc1c(-c2c(O)[nH]c3ccccc23)[nH]c2ccccc12 | 73.6 |
| CNc1cc2c(Nc3cccc(Br)c3)ncnc2cn1 | 55.2 |
| NC(=O)c1cccc(-c2cc(Nc3ccc(OC(F)(F)F)cc3)ncn2)c1 | 88.6 |
| CC(C)(C)c1nc2c3cc[nH]c(=O)c3c3cc(F)ccc3c2[nH]1 | 33.9 |
| Clc1ccc(Nc2nnc(Cc3ccncc3)c3ccccc23)cc1 | 98.9 |
| CCCCc1c(-c2ccc(O)cc2)[nH]c2nccnc12 | 72.8 |

Set 4
Cell line: A-375
Tested at: 100 µM
Time: 18 h
| SMILES | viability |
| --- | --- |
| O=S(=O)(O)CCS | 90.8% |
| CC(C)(C)NC(=O)[C@H]1CC[C@H]2[C@@H]3CC[C@H]4NC(=O)C=C[C@]4(C)[C@H]3CC[C@]12C | 79.1% |
| COc1ccccc1OCC(O)CO (stereo not shown) | 91.7% |
| CC(=O)[C@H]1CC[C@H]2[C@@H]3CCC4=CC(=O)CC[C@]4(C)[C@H]3CC[C@]12C | 26.9% |
| CCCc1nc(C(C)(C)O)c(C(=O)OCc2oc(=O)oc2C)n1Cc1ccc(-c2ccccc2-c2nnn[nH]2)cc1 | 99% |
| CC(C)(CO)C(O)C(=O)NCCCO (stereo not shown) | 69.1% |
| C[C@@H]1O[C@@H]1P(=O)(O)O | 94.9% |
| CC(C)OC(=O)C(C)(C)Oc1ccc(C(=O)c2ccc(Cl)cc2)cc1 | 91.6% |

Repeated from above (set 4):
| SMILES | viability |
| --- | --- |
| CC(=O)[C@H]1CC[C@H]2[C@@H]3CCC4=CC(=O)CC[C@]4(C)[C@H]3CC[C@]12C | 26.9% |
| CCCc1nc(C(C)(C)O)c(C(=O)OCc2oc(=O)oc2C)n1Cc1ccc(-c2ccccc2-c2nnn[nH]2)cc1 | 99% |
| CC(C)(CO)C(O)C(=O)NCCCO (stereo not shown) | 69.1% |
| C[C@@H]1O[C@@H]1P(=O)(O)O | 94.9% |
| CC(C)OC(=O)C(C)(C)Oc1ccc(C(=O)c2ccc(Cl)cc2)cc1 | 91.6% |
